Assay results gathered from unrelated publications.
Parts stem from different laboratories: compare values within a part only. Changes are numbered by the printed parent chain.
Chain of UniProt P00519 (whole entry, unmodified, looked up): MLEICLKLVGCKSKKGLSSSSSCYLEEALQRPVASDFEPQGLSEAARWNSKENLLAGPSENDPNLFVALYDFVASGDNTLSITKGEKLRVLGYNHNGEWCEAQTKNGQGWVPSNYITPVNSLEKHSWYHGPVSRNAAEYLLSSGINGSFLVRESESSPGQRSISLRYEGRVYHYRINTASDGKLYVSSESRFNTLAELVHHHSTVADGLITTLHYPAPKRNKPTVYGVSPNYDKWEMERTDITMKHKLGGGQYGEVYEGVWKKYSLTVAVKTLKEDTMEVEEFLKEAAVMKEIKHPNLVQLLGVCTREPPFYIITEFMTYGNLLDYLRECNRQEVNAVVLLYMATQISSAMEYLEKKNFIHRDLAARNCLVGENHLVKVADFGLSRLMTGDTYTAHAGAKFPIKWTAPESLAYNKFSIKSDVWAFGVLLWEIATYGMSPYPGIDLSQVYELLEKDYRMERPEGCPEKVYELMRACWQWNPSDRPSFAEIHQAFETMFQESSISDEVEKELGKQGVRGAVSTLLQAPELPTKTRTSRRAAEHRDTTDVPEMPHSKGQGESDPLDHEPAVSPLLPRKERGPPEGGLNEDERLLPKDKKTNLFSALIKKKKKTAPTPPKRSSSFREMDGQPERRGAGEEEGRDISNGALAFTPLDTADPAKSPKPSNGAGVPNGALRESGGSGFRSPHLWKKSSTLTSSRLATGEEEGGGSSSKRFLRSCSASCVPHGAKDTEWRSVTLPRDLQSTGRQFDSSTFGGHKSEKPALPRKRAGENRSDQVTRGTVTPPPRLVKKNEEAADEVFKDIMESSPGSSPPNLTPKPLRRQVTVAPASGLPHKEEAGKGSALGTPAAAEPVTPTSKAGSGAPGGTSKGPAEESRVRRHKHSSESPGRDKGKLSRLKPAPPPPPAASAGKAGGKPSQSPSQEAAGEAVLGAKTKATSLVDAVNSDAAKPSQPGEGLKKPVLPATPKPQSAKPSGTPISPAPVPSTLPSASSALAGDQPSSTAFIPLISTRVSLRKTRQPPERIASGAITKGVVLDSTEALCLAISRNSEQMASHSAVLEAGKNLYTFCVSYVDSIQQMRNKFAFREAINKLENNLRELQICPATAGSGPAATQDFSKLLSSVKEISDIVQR
Chain of UniProt P35462 (whole entry, looked up): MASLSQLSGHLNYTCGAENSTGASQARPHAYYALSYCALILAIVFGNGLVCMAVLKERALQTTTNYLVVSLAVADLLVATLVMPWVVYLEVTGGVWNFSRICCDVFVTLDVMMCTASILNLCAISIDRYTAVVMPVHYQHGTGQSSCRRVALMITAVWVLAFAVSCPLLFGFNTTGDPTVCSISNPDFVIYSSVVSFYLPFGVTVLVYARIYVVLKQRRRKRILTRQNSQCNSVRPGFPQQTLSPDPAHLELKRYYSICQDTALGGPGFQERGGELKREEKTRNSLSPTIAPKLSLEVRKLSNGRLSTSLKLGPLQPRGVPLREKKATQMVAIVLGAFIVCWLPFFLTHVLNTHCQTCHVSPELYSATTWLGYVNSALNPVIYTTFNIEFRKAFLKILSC

Series 1 — method: protein binding microarray; form: double-stranded DNA, one strand shown; sample: in vitro; tested at: not given; reference: not given; direction: higher = stronger binding
Target: Histone acetyltransferase KAT6A, winged helix 2, GST fusion (KAT6A, Homo sapiens, UniProt Q92794, residues 85-181)
Notes: 8-mer, flanks averaged, mean of 2 arrays, mostly near background
Residues (chain): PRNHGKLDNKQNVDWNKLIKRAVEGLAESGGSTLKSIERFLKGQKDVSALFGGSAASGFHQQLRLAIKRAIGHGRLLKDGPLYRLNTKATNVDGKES
`GCGGCTAA` gave an E-score of 0.161.
The E-score of `GGCGTGAA` is reported as 0.117.
`ACCATTCG` gave an E-score of -0.0313.
`ACGGAACC` has an E-score of -0.0166.
`ATGACCGC` gave an E-score of 0.00617.
For `GGCTCGTA`, the E-score was -0.0335.
With `GATACATC` the E-score was -0.158.
`AAGTCCCG` gave an E-score of -0.0815.

Series 2 — read-out: enzyme activity; action: inhibitor; tested at: 0.5 µM; reference: control
Target: Serine/threonine-protein kinase Nek4 (NEK4, Homo sapiens, UniProt P51957)
Chain of UniProt P51957 (whole entry, looked up): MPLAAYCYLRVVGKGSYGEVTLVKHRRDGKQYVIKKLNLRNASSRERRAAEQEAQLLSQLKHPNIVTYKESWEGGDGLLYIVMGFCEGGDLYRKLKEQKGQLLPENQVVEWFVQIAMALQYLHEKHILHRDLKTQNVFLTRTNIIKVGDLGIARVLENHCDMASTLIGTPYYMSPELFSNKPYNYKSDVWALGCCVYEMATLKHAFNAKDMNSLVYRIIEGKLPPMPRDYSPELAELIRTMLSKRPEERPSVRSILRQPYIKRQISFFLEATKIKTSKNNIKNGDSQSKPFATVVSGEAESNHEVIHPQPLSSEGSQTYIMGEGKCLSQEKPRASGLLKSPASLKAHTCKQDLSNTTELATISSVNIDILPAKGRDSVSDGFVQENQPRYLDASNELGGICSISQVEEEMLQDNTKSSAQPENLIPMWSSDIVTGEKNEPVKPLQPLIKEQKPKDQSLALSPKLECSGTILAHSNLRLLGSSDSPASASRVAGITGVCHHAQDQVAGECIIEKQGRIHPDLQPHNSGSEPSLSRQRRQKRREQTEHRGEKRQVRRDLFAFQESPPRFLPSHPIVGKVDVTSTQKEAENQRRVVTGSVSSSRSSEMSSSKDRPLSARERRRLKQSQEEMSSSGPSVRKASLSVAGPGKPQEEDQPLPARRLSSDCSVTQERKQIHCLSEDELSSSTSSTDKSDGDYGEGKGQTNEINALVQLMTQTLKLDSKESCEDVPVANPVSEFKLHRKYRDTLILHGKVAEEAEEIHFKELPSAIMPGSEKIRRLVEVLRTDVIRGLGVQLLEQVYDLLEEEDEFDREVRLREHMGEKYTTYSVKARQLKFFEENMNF
`Oc1ccc(-c2nc(-c3ccncc3)c(-c3ccc(F)cc3)[nH]2)cc1` has a remaining activity of 94%.
The remaining activity of `Nc1ccc2ncnc(NCCc3ccc(Oc4ccccc4)cc3)c2c1` is reported as 97.8%.
With `NCCNc1ncc(C(N)=O)c(Nc2cccc(C(F)(F)F)c2)n1` the remaining activity was 97.5%.
With `O=c1c2ccccc2[nH]c(=S)n1CCN1CCC(=C(c2ccc(F)cc2)c2ccc(F)cc2)CC1` the remaining activity was 99.1%.
With `C#Cc1cccc(Nc2ncnc3cc(OCCOC)c(OCCOC)cc23)c1` the remaining activity was 100%.
For `Cc1cccc(-c2[nH]c(C(C)(C)C)nc2-c2ccc3c(c2)OCO3)n1`, the remaining activity was 94.9%.
For `O=C(Nc1cccc(Nc2cc(Nc3cccc(C(F)(F)F)c3)ncn2)c1)C1CC1`, the remaining activity was 90.6%.
The remaining activity of `O=C1NC(=O)C(c2cn(CCCn3ccnc3)c3ccccc23)=C1Nc1ccccc1` is reported as 94.9%.
`Nc1[nH]nc2nc3ccccc3nc12` gave a remaining activity of 97.8%.
With `COc1ccc(OC)c2c(=S)c3ccccc3[nH]c12` the remaining activity was 87.7%.
The remaining activity of `Cn1sc(=O)n(Cc2ccccc2)c1=O` is reported as 98%.
The remaining activity of `CC(C)[C@H](CO)Nc1nc(Nc2cc(N)cc(Cl)c2)c2ncn(C(C)C)c2n1` is reported as 80.2%.
The remaining activity of `O=C(CCCc1ccc(-c2ccccc2F)cc1)Nc1ccc(O)cc1` is reported as 103%.
The remaining activity of `Cc1nc(-c2ccccc2)c(-c2ccncc2)o1` is reported as 100%.
`O=C(O)c1ccc2c3c1cccc3c(=O)n1c3ccccc3nc21` gave a remaining activity of 60.4%.
`COc1ccc(C(=O)Nc2sc3c(c2C(N)=O)CCCC3)cc1OC` gave a remaining activity of 104%.

Series 3 — target: CCND3, cyclin fold, Cln2 fusion (human); method: yeast growth competition, sequencing; sample: yeast; notes: strong parent motif; reference: not given; direction: higher = stronger binding
Starting sequence: INSM1 docking peptide (human); PKAIRKLHFEDEV; partner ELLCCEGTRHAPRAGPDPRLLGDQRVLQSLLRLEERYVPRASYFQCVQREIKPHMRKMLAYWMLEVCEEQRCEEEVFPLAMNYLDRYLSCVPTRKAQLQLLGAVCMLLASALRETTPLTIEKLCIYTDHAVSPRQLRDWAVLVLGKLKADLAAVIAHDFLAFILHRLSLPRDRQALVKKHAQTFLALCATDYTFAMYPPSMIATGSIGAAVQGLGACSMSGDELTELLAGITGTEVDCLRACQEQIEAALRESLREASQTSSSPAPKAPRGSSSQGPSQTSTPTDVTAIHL
Under “normalised enrichment score”, `K2L` is recorded as 0.681.
Under “normalised enrichment score”, `A3Q` is recorded as 0.0965.
Under “normalised enrichment score”, `I4L` is recorded as 0.29.
`L7T`: “normalised enrichment score” 0.509.
Under “normalised enrichment score”, `R5F` is recorded as -0.0774.
`F9M`: “normalised enrichment score” 0.262.
For `F9Q`, “normalised enrichment score” read 0.0235.
`K2E`: “normalised enrichment score” -0.0117.

Single results of other studies
With `N#CC1(c2ccccn2)CCN(Cc2cc(C(=O)O)c(=O)n3ccccc23)CC1` the remaining binding was 65% (Tyrosine-protein kinase ABL1, non-phosphorylated (ABL1, Homo sapiens, UniProt P00519, F317I); binding, competition with immobilised ligand; 1 µM).
With `C[C@@H](NC(=O)Nc1cc2[nH]ncc2c(CO)n1)c1ccccc1` the inhibition was -2.24% (D(3) dopamine receptor (DRD3, Homo sapiens, UniProt P35462); cell-free assay; 10 µM).

Repeated from above (series 1):
The E-score of `GGCGTGAA` is reported as 0.117.
`ACCATTCG` gave an E-score of -0.0313.
`ACGGAACC` has an E-score of -0.0166.
